Results collected from several papers.
Compare with care: the assays were run in different laboratories.
DDR1: Epithelial discoidin domain-containing receptor 1 (DDR1, Homo sapiens, UniProt Q08345)

SMILES	target	test	setting	how to read	measurement	value
Nc1ncc(-c2cc(-c3cnn(CC(F)(F)F)c3)ncc2F)nc1C(=O)NC1CNCC(F)C1 (stereo not shown)	DDR1	enzyme activity	1 µM	reference: DMSO control	remaining activity	73.2%
CCN1CCN(Cc2ccc(NC(=O)c3ccc(C)c(NC(=O)c4cncc(-c5cccs5)c4)c3)cc2C(F)(F)F)CC1	DDR1	binding, competition with immobilised ligand	1 µM		remaining binding	0.4%
CNC(=O)C[C@H](Cc1ccc(C#N)cc1)NC(=O)c1cc(-c2ccc(CN[C@H](C)c3ccc(C)cc3)o2)ccc1Cl	DDR1	enzyme activity, inhibitor	1 µM		activity vs control	106%
CCn1cc(C(=O)O)c(=O)c2c(N)c(F)c(NC3CCCCC3)cc21	Epithelial discoidin domain-containing receptor 1, phosphorylated by SRC (DDR1, Homo sapiens, UniProt Q08345)	kinase activity	0.1 µM, together with: ATP at Km		inhibition	-18.7%
COc1c(Cl)cccc1Nc1c(-c2ccncc2C#C[C@@]2(C)CCCN2C(=O)/C=C/CN(C)C)[nH]c2c1C(=O)NCC2	DDR1	cell-free assay, competition with immobilised ligand	3 µM		remaining binding	8.6%
COc1cc(Nc2nccc(-c3cnn4nc(OC)ccc34)n2)cc(C(F)(F)F)c1	DDR1	binding, competition with immobilised ligand	1 µM		remaining binding	100%
NC(=O)C[C@H]1CCc2sc3ncnc(O[C@H]4CC[C@H](N5CCOCC5)CC4)c3c21	DDR1	enzyme activity, inhibitor	10 µM		inhibition	39%
C=CC(=O)N1Cc2nc(-c3cc(-c4cc(Cl)cnc4Cl)c(F)cc3F)n(-c3ccncn3)c2C1	DDR1	cell-free assay	1 µM		inhibition	-0.5%
CNC1C[S+]2CC[S+]3CC[S+](C1)[Ru-4]321([N]=C=S)[n]2c3ccc(OC)cc3c3c4c(c5cc(F)c[n+]1c5c32)C(=O)NC4=O (stereo not shown)	DDR1	KinomeScan	0.1 µM	reference: untreated	remaining binding	99%
Cc1cnc2nc1Nc1cccc(c1)COC/C=C/COCc1cc(ccc1OCCN1CCOCC1)N2	DDR1	binding	0.1 µM		remaining binding	75%
Nc1ncc2c(n1)-c1c([nH]c3ccc(C4=CCOCC4)cc13)CCC2	DDR1	binding, competition with immobilised ligand	1 µM		remaining binding	96%
CC(C)=CC1OC(C)(C)C2C=C3C(=O)C(Cl)=CC(O)C3C3C(O)C4OC4C(=O)C132 (stereo not shown)	DDR1	cell-free assay, competition with immobilised ligand	10 µM		remaining binding	91%
Cc1cccc(O[C@H]2CCC[C@@H](C(C)CNCc3ccncc3)C2)c1 (relative stereo)	DDR1	cell-free assay	10 µM		inhibition	-1%

Excerpt of the above:
SMILES	target	test	setting	how to read	measurement	value
Nc1ncc(-c2cc(-c3cnn(CC(F)(F)F)c3)ncc2F)nc1C(=O)NC1CNCC(F)C1 (stereo not shown)	DDR1	enzyme activity	1 µM	reference: DMSO control	remaining activity	73.2%
